Results from different studies.
Protocols differ between the studies behind these lines. Numbers after ± are the reported error.
Organism: Staphylococcus aureus

Structure (SMILES) | strain | matrix | dose | concentration | time | temperature | inhibition zone diameter [mm]
CN(C)CCn1nc(C23CC4CC(CC(C4)C2)C3)n(C)c1=S | IFO 3060 | – | 200 µg/disc | – | 24 h | 37 °C | 16
CO[C@H]1O[C@H](COC(c2ccccc2)(c2ccccc2)c2ccccc2)[C@@H](OS(=O)(=O)c2ccccc2)[C@H](OS(=O)(=O)c2ccccc2)[C@H]1OS(=O)(=O)c1ccccc1 | – | – | – | concentration not given | – | – | 15 ± 0.3
COc1c2c(cc3oc(=O)cc(-c4ccccc4)c13)C(=O)c1cc(C)cc(O)c1C2=O | MTCC 96 | – | 100 µg/disc | – | – | – | 12
COc1ccccc1N1CCN(Cn2nc(C34CC5CC(CC(C5)C3)C4)n(-c3ccccc3)c2=S)CC1 | IFO 3060 | – | 200 µg/disc | – | 24 h | 37 °C | 22
COc1cc(OC)c2c(c1)C(=O)c1cc3oc(=O)cc(-c4ccccc4)c3c(O)c1C2=O | MTCC 96 | – | 100 µg/disc | – | – | – | 10
Cn1c(SCCN2CCCCC2)nnc1C12CC3CC(CC(C3)C1)C2 | IFO 3060 | – | 200 µg/disc | – | 24 h | 37 °C | 15
Cc1c2c(cc3oc(=O)cc(-c4ccccc4)c13)C(=O)c1cccc(O)c1C2=O | MTCC 96 | – | 100 µg/disc | – | – | – | 8
Cc1ncc([N+](=O)[O-])n1CCOCc1nnc(SCC(=O)c2ccc(O)cc2)o1 | – | DMSO | – | 60 µg/mL | 24 h | 37 °C | 10 to 15
Fc1ccc(CSc2nnc(C34CC5CC(CC(C5)C3)C4)n2-c2ccccc2)cc1 | IFO 3060 | – | 200 µg/disc | – | 24 h | 37 °C | 16
Cc1ncc([N+](=O)[O-])n1CCOCc1nnc(SCC(=O)c2ccc(Br)cc2)o1 | – | DMSO | – | 60 µg/mL | 24 h | 37 °C | 15 to 20
CCOC(=O)C1=C(C)NC2=C(C(=O)CC(C)(C)C2)C1c1ccc(OCC(=O)NN=Cc2cccc([N+](=O)[O-])c2)cc1OCC(=O)NN=Cc1cccc([N+](=O)[O-])c1 (stereo not shown) | 6538P | – | – | concentration not given | 24 h | 37 °C | 7.3 ± 0.3
CC(=O)[O-].O.O.O.O.[Mn+2].[O-]c1ccc(Br)cc1C=NCCN1CCOCC1 | – | – | 20 µL of 100 µM per disc | – | – | – | 13
COc1ccc(C(=O)CSc2nnc(COCCn3c([N+](=O)[O-])cnc3C)o2)cc1F | – | DMSO | – | 60 µg/mL | 24 h | 37 °C | ≥ 20

Repeated from above:
Structure (SMILES) | strain | matrix | dose | concentration | time | temperature | inhibition zone diameter [mm]
Cc1ncc([N+](=O)[O-])n1CCOCc1nnc(SCC(=O)c2ccc(Br)cc2)o1 | – | DMSO | – | 60 µg/mL | 24 h | 37 °C | 15 to 20
CCOC(=O)C1=C(C)NC2=C(C(=O)CC(C)(C)C2)C1c1ccc(OCC(=O)NN=Cc2cccc([N+](=O)[O-])c2)cc1OCC(=O)NN=Cc1cccc([N+](=O)[O-])c1 (stereo not shown) | 6538P | – | – | concentration not given | 24 h | 37 °C | 7.3 ± 0.3
